Published values pooled from the literature.
Values joined by “and” are separate records of one study, mostly repeats; a detail may differ. ± gives the spread as reported.
uncharacterized protein: uncharacterized protein (Anopheles coluzzii, UniProt A0A6E8VQK1)
Nuclear receptor subfamily 1 group I member 3: Nuclear receptor subfamily 1 group I member 3 (Homo sapiens, UniProt Q14994)
Sequence of UniProt Q14994 (whole entry, looked up): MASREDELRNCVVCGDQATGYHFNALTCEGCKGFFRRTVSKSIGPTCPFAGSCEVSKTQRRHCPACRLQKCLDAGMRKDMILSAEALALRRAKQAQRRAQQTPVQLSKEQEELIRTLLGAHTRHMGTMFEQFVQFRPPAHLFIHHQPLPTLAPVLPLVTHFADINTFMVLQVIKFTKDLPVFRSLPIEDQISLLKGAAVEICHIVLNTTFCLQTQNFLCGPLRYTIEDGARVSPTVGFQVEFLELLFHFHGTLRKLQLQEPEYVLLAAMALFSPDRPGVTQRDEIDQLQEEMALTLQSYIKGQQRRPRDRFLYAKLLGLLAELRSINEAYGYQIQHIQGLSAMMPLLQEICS
Sequence of UniProt P21728 (whole entry, looked up): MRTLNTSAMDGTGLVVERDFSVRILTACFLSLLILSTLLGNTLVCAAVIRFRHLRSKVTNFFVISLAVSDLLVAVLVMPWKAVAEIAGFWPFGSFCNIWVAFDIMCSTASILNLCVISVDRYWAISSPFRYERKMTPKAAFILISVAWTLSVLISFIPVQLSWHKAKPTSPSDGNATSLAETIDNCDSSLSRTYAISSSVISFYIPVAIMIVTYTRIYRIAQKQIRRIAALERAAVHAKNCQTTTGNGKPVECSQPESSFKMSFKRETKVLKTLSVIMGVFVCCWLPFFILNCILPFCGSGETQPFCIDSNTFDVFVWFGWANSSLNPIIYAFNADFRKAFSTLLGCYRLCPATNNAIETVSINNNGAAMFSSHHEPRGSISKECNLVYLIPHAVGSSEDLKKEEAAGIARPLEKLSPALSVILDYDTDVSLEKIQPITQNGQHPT
Sequence of UniProt Q9BQI3 (whole entry, looked up): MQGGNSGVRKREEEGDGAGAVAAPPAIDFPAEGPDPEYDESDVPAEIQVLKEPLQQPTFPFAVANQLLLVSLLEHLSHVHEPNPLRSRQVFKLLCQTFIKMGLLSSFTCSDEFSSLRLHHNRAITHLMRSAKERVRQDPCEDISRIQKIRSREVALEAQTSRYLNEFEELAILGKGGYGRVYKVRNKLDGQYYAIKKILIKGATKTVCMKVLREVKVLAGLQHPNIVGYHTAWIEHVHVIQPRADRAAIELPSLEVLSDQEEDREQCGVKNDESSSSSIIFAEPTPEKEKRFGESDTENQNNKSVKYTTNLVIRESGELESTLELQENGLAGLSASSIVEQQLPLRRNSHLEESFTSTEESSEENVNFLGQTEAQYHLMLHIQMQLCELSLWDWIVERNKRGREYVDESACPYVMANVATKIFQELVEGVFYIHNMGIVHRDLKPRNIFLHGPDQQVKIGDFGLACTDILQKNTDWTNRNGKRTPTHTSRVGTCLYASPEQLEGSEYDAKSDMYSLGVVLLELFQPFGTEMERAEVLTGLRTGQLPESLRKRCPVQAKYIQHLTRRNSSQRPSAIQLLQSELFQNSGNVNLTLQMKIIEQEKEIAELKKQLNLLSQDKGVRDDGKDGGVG
Sequence of UniProt P49721 (whole entry, looked up): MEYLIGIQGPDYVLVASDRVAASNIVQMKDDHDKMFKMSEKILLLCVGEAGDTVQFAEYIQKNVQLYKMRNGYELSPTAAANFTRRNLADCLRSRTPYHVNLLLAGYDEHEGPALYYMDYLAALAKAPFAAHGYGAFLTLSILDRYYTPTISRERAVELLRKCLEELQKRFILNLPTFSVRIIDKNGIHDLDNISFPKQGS
Sequence of UniProt P48729 (whole entry, looked up): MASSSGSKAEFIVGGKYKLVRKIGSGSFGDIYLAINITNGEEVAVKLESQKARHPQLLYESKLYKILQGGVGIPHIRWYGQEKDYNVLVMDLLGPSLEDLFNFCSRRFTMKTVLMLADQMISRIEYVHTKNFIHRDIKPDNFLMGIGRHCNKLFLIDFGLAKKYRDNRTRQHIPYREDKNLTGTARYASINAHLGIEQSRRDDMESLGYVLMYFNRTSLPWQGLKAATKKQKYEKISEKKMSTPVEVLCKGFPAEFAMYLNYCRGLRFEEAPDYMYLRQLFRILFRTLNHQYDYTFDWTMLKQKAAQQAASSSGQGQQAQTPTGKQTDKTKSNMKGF
Sequence of UniProt P02716 (whole entry, unmodified, looked up): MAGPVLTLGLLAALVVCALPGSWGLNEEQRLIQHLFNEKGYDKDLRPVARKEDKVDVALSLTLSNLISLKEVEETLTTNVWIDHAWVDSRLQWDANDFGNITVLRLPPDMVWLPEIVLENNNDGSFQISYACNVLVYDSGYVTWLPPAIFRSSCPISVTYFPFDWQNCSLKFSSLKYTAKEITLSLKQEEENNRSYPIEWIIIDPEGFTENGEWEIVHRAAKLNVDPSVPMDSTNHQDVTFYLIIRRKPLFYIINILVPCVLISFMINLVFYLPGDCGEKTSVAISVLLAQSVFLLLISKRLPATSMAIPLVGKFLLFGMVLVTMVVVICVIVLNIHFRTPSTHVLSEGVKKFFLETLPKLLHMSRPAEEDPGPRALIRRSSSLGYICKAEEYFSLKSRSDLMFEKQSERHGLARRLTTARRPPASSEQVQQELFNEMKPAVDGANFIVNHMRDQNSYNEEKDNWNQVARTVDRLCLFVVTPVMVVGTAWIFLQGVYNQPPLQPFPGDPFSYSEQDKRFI
Sequence of UniProt P04756 (whole entry, unmodified, looked up): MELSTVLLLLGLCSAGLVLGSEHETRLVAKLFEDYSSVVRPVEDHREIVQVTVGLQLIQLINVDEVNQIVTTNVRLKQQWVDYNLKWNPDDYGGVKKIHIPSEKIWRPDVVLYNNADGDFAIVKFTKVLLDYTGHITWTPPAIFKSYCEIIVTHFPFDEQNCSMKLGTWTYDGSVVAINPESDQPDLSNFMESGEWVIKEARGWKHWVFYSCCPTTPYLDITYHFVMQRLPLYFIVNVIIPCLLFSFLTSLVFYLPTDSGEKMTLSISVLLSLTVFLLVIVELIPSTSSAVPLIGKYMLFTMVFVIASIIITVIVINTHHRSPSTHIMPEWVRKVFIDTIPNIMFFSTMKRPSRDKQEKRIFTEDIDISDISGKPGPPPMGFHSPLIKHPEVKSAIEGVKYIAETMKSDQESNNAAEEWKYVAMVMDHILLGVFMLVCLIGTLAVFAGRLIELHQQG
Sequence of UniProt P20782 (whole entry, unmodified, looked up): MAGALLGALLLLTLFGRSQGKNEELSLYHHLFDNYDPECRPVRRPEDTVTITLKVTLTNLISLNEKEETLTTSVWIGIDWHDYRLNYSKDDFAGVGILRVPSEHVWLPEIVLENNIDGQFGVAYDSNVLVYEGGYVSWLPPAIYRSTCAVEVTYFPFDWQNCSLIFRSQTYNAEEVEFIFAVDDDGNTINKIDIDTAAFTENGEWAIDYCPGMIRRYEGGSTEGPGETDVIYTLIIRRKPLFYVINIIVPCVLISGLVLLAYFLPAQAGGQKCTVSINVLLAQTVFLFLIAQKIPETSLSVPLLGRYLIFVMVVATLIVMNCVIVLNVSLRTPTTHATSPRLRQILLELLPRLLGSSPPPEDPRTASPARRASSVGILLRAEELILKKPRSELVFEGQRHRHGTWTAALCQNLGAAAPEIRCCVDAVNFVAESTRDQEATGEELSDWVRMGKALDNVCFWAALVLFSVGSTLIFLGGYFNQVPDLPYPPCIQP
Sequence of UniProt P62136 (whole entry, unmodified, looked up): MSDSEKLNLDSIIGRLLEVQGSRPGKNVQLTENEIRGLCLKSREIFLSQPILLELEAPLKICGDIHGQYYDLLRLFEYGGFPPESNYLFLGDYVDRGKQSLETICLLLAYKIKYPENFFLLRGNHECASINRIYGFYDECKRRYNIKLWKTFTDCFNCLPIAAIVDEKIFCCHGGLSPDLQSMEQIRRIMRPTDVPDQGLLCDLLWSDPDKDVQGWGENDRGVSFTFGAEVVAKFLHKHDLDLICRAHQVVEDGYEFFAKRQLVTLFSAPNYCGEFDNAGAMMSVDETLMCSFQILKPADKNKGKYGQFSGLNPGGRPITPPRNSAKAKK
Sequence of UniProt Q96E52 (whole entry, looked up): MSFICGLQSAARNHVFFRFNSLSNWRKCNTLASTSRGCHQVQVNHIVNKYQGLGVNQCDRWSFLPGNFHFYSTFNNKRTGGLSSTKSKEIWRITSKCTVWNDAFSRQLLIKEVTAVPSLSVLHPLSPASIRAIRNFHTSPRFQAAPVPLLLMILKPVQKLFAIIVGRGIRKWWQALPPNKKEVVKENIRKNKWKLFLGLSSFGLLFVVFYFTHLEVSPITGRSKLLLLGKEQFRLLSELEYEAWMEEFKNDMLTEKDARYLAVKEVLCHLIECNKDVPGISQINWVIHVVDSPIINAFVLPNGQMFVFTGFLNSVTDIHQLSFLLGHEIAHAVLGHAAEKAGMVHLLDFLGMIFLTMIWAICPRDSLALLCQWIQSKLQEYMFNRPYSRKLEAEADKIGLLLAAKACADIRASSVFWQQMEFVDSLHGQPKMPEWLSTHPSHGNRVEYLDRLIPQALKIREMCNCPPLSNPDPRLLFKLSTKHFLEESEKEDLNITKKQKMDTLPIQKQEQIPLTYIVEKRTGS
Sequence of UniProt O42275 (whole entry, looked up): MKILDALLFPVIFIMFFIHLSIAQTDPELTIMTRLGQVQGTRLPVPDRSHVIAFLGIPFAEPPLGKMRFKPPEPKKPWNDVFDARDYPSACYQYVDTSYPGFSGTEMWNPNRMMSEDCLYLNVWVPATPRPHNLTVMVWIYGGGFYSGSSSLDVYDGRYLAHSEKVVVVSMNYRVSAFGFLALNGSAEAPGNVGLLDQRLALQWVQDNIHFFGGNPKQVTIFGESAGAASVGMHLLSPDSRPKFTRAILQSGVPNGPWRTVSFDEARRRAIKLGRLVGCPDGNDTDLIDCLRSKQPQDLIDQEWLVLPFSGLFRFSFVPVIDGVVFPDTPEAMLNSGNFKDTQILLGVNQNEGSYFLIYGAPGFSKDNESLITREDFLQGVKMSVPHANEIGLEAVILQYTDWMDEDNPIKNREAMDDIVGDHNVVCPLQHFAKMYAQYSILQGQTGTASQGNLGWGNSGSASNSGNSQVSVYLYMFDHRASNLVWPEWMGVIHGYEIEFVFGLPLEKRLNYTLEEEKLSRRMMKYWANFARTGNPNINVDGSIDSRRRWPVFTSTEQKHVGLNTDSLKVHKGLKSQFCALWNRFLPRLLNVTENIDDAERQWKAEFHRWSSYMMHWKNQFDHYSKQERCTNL

SMILES = c1cncc([C@@H]2CCCCN2)c1; target = Chrnd/Chrna1/Chrne (Mus musculus, UniProt P02716+P04756+P20782, G173K/S470W); assay = single-channel kinetics; conditions = K chain side site; quantity = koff; result = 2010 s⁻¹
SMILES = c1ccc2c(c1)cc1ccc3cccc4ccc2c1c34; target = Ahr (Rattus norvegicus, UniProt P41738); assay = agonist, CALUX reporter; test system = H4IIE; conditions = 0.038 µg/mL; quantity = agonist response; result = 87.4%
SMILES = CC[C@H](C)[C@H](NC(=O)[C@@H](NC(=O)[C@@H](NC(=O)[C@H](Cc1ccccc1)NC(=O)[C@H](C)NC(=O)[C@H](CCCNC(=N)N)NC(=O)CNC(=O)[C@@H]1CCCN1C(=O)CN)C(C)C)[C@@H](C)O)C(=O)O; target = H-2 class I histocompatibility antigen, D-D alpha chain, 22 (H2-D1, Mus musculus, UniProt P01900); assay = NMR line shape; conditions = 25 °C, peptide-deficient H2-D/human β2m, TAPBPR, two-state model; quantity = koff; result = < 100 s⁻¹
SMILES = O=P(O)(O)OC[C@H]1C[C@@](O)(CO)[C@@H](O)[C@H](O)[C@@H]1O; target = valA (Streptomyces hygroscopicus, UniProt H2K887); assay = phosphate release; conditions = 150 µM; quantity = apparent Vmax; result = 2.7 ± 0.3 µM/min
SMILES = CNC(=O)Oc1ccccc1OC(C)C; target = uncharacterized protein; assay = enzyme activity, inhibitor; test system = Sf9 cell homogenate; conditions = 22.94 µM, 0.1667 h, together with: α-naphthyl acetate substrate; how to read = reference: no inhibitor; quantity = remaining activity; result = 11.4%
SMILES = O=C(NO)[C@H]1COC(c2c[nH]c3ccc(F)cc23)=N1; target = UDP-3-O-acyl-N-acetylglucosamine deacetylase (Pseudomonas aeruginosa, UniProt P47205, C40S); assay = ITC; conditions = concentration not given, 298 K; quantity = -TΔS of binding; result = -7.74 kcal/mol
SMILES = CC(C)C[C@H](NC(=O)[C@H](Cc1ccccc1)NC(=O)[C@@H]1CCCN1C(=O)[C@H](CCCNC(=N)N)NC(=O)[C@H](CCC(=O)O)NC(=O)[C@@H]1CCCN1C(=O)[C@H](CO)NC(=O)[C@@H](N)CCC(=O)O)C(=O)O; target = Epithelial sodium channel subunit alpha (Homo sapiens, UniProt P37088); assay = binding, bio-layer interferometry; quantity = kon; result = 157 M⁻¹ s⁻¹
SMILES = O=C(c1ccc(Cl)cc1)N1CCN2C(=O)N(OC(=O)N3CCOc4ccccc43)C(=O)C2C1 (stereo not drawn); target = Proteasome Macropain subunit (Homo sapiens, UniProt P49721); assay = MS-based ABPP; test system = SW-620 conditioned medium; conditions = 10 µM; how to read = reference: compound over DMSO, lower = more inhibition; quantity = mean protein ratio; result = 1.03
SMILES = [2H]c1c([2H])c([C@]2([2H])CCCN2C(=O)C(C)(C)Oc2ccc3cn[nH]c3c2)c([2H])c([2H])c1C([2H])([2H])[2H]; target = PKMYT1 (Homo sapiens, UniProt Q99640); assay = KINOMEscan; conditions = 1 µM; how to read = reference: DMSO control; quantity = remaining binding; result = 55%
SMILES = O=C(Nc1cccnn1)N1CCC(=Cc2cccc(Oc3ccc(C(F)(F)F)cn3)c2)CC1; target = CCKAR (Homo sapiens, UniProt P32238); assay = binding; conditions = 10 µM, together with: [3H]L-364,718; quantity = inhibition; result = -4%
SMILES = CCCCCCCCc1ccc(C(=O)Nc2ccccc2C(=O)OCC)cc1; target = Serine/threonine-protein kinase PLK1, polo-box domain (PLK1, Homo sapiens, UniProt P53350); assay = inhibitor; conditions = concentration not given; quantity = activity; result = inactive
SMILES = C[C@H](CS)C(=O)N1CCC[C@H]1C(=O)O; target = blaNDM-1 (Klebsiella pneumoniae, UniProt C7C422); assay = enzyme activity, inhibitor; quantity = Hill coefficient; result = 0.58 ± 0.03
SMILES = CCCCCCCCCCCCCCCC[N+](C)(C)C.[Br-]; target = Sodium channel protein type 4 alpha, BTX-activated (Oryctolagus cuniculus, UniProt G1SLL9); test system = rabbit; quantity = mean open time; result = 205 ms and 405 ms
SMILES = CCN(CC)CCCC[C@H](NC(=O)[C@H](CC(C)C)NC(=O)[C@H](C)NC(=O)[C@H](Cc1ccccc1)NC(=O)c1ccc(C(C)(C)C)cc1)C(=O)N[C@@H](CO)C(=O)OC; target = DRD1 (Homo sapiens, UniProt P21728); assay = antagonist, radioligand binding; conditions = 10 µM; how to read = reference: control binding; quantity = specific binding; result = 95.7%
SMILES = COC(=O)[C@@]1(O)C[C@H]2O[C@]1(C)n1c3ccccc3c3c4c(c5c6ccccc6n2c5c31)C(=O)NC4; target = MAPK3 (Homo sapiens, UniProt P27361); assay = ADP-Glo; conditions = 8.45 µM, together with: substrate MBP; quantity = remaining activity; result = 116%
SMILES = CN(N=O)c1ccc(O)c(O)c1; target = DCLRE1A (Homo sapiens, UniProt Q6PJP8); assay = exonuclease activity, inhibitor, fluorescence HTS; conditions = 10 µM, 80 min, together with: 8 nM 5P-FQ substrate; how to read = reference: high and low controls; quantity = remaining activity; result = 45%
SMILES = CCOC(=O)COc1ccc2c(=O)c3ccccc3oc2c1; target = ache (Electrophorus electricus, UniProt O42275); assay = enzyme activity; conditions = 0.84 µM, together with: substrate 0.86 mM; how to read = higher = faster reaction; quantity = reaction velocity; result = 0.0011 a.u.
SMILES = C[C@H]1CCC/C=C/[C@@H]2C[C@H](O)C[C@H]2[C@H](O)/C=C/C(=O)O1; target = Protein transport protein Sec61 subunit alpha isoform 1 (Homo sapiens, UniProt P61619); assay = reporter gene, inhibitor, dual luciferase; test system = HEK293 with SP-CD4-FLuc reporter; conditions = concentration not given; quantity = FLuc/RLuc ratio; result = 6.34 and 4.77 and 6.14 and 6.42
SMILES = Nc1ncc(-c2nc(N3CCOCC3)nc(N3CCOCC3)n2)c(C(F)F)n1; target = PIK3CA (Homo sapiens, UniProt P42336, E545K); assay = KINOMEscan; conditions = 10 µM; quantity = remaining binding; result = 0%
SMILES = O=C1c2ccccc2C(=O)C1C(=O)C(c1ccccc1)c1ccc(Cl)cc1 (stereo not drawn); target = Nuclear receptor subfamily 1 group I member 3; test system = cells; conditions = concentration not given; quantity = activity; result = inactive
SMILES = CN1CCN(c2cc(-c3ccncc3)c(-c3ccc4ccccc4c3)nn2)CC1; target = FFAR3 (Homo sapiens, UniProt O14843); assay = agonist, FLIPR; conditions = 12.5 µM; quantity = activation; result = 6.6%
SMILES = CC(C)[C@@H]1NC(=O)[C@H](C)OC(=O)[C@@H](C(C)C)NC(=O)[C@@H](C(C)C)OC(=O)[C@H](C(C)C)NC(=O)[C@H](C)OC(=O)[C@@H](C(C)C)NC(=O)[C@@H](C(C)C)OC(=O)[C@H](C(C)C)NC(=O)[C@H](C)OC(=O)[C@@H](C(C)C)NC(=O)[C@@H](C(C)C)OC1=O; target = Metalloendopeptidase OMA1, mitochondrial (OMA1, Homo sapiens, UniProt Q96E52); assay = Western blot; test system = HEK293T, OMA1 siRNA knockdown; conditions = concentration not given; quantity = L-OPA1 level; result = 51.9 ± 9.9%
SMILES = COc1cc(Nc2ncc(F)c(Nc3ccc4c(n3)NC(=O)C(C)(C)O4)n2)cc(OC)c1OC; target = CSNK1A1 (Homo sapiens, UniProt P48729); assay = KINOMEscan; conditions = 10 µM; quantity = inhibition; result = 24%
SMILES = CC[C@H](C)[C@H](NC(=O)CNC(=O)[C@@H](N)CCCCN)C(=O)N[C@@H](CC(C)C)C(=O)N[C@@H](CCCCN)C(=O)N[C@@H](CCCNC(=N)N)C(=O)N[C@@H](CCC(=O)O)C(=O)N[C@@H](CCCCN)C(=O)N[C@@H](CCCNC(=N)N)C(=O)N[C@@H](CC(C)C)C(=O)N[C@@H](CCCNC(=N)N)C(=O)N[C@@H](CCCNC(=N)N)C(=O)N[C@@H](CCCCN)C(=O)N[C@@H](CC(N)=O)C(=O)N[C@H](C(=O)N[C@@H](Cc1c[nH]cn1)C(=O)N[C@@H](Cc1c[nH]c2ccccc12)C(=O)N1CCC[C@H]1C(=O)N[C@@H](CCC(=O)O)C(=O)N[C@@H](CCC(=O)O)C(=O)NCC(=O)N[C@@H](CCCCN)C(=O)N[C@@H](CC(C)C)C(=O)N[C@@H](CCCNC(=N)N)C(=O)N[C@@H](CCC(=O)O)C(=O)N[C@@H](Cc1ccc(O)cc1)C(=O)N[C@@H](Cc1ccccc1)C(=O)N[C@@H](Cc1ccc(O)cc1)C(=O)N[C@@H](Cc1ccccc1)C(=O)N[C@@H](CCC(=O)O)C(=O)N[C@@H](CC(C)C)C(=O)N[C@@H](CC(=O)O)C(=O)N[C@@H](CCC(=O)O)C(=O)N[C@@H](C)C(=O)N[C@@H](CCC(=O)O)C(=O)N[C@@H](CCCNC(=N)N)C(=O)N[C@H](C(=O)N[C@@H](CC(N)=O)C(=O)N[C@H](C(=O)O)C(C)C)C(C)C)C(C)C; target = PPP1CA (Homo sapiens, UniProt P62136); assay = binding, isothermal titration calorimetry; conditions = concentration not given, 25 °C, PP1α residues 7-330; quantity = entropy change ΔS; result = -36.8 ± 6.1 cal/mol/K
SMILES = CNC(=O)Oc1cccc2c1OC(C)(C)O2; target = uncharacterized protein; assay = enzyme activity, inhibitor; test system = Sf9 cell homogenate; conditions = 0.1163 µM, 0.1667 h, together with: α-naphthyl acetate substrate; how to read = reference: no inhibitor; quantity = remaining activity; result = 96.1%
SMILES = CO/N=C1\C[C@]2(C[C@@H]3C[C@@H](C/C=C(\C)C[C@@H](C)/C=C/C=C4\CO[C@@H]5[C@H](O)C(C)=C[C@@H](C(=O)O3)[C@]45O)O2)O[C@H](/C(C)=C/C(C)C)[C@H]1C; target = Nuclear receptor subfamily 1 group I member 3; assay = coactivator recruitment; conditions = concentration not given, together with: 0.1 µM CITCO; quantity = efficacy; result = 8.79 ± 1.35%
SMILES = COc1ncccc1-c1cnn2ccc(N3CCN(C(=O)OC(C)C)CC3)nc12; target = Ribosomal protein S6 kinase alpha-3, N-terminal kinase domain (RPS6KA3, Homo sapiens, UniProt P51812); assay = KINOMEscan binding; conditions = 1 µM; how to read = reference: untreated control; quantity = remaining binding; result = 83%
SMILES = COc1ccc(N2C(=O)N(c3c(C)cccc3Cl)Cc3cnc(Nc4ccc(C5CCN(C)CC5)cc4OC)nc32)nc1; target = EIF2AK1 (Homo sapiens, UniProt Q9BQI3); assay = kinase activity; conditions = 0.5 µM; quantity = inhibition; result = 1.31%
SMILES = C[C@H]1CN(c2n[nH]c3nc(N[C@H]4CC[C@H](NS(=O)(=O)CCC(F)(F)F)CC4)ncc23)CCO1; target = CHEK1 (Homo sapiens, UniProt O14757); assay = inhibitor, Kinobeads competition profiling; conditions = 20 µM; how to read = reference: vehicle; quantity = relative abundance; result = 1.09
SMILES = O=C(Nc1cnccc1Cl)N1CCN(Cc2ccc3c(c2)OC(F)(F)O3)CC1; target = CHRM3 (Homo sapiens, UniProt P20309); assay = binding; conditions = 50 µM, together with: [3H]N-methylscopolamine; quantity = inhibition; result = -12%
SMILES = COc1cc(N)c(Cl)cc1C(=O)NC1CN2CCC1CC2 (stereo not drawn); target = HCAR2 (Homo sapiens, UniProt Q8TDS4); assay = β-arrestin recruitment, TANGO luminescence, item: GPR109A; conditions = concentration not given; how to read = reference: basal luminescence; quantity = log2 fold change; result = -0.014
SMILES = CN(C(=O)n1cnc(-c2ccc[n+]([O-])c2)c1)C1CCCCC1; target = central imidazoline I2 receptor, rat; assay = binding; conditions = 10 µM, together with: [3H]idazoxan; quantity = inhibition; result = 4%
SMILES = O=C(O)COP(=O)(O)O; target = TPI1 (Saccharomyces cerevisiae, UniProt P00942, S211G/Y208T); assay = enzyme activity, competitive inhibitor, GPDH/NADH-coupled; conditions = pH 4.9, 25 °C, ionic strength 0.1 NaCl, together with: glyceraldehyde 3-phosphate substrate; how to read = reference: mutant over wild type; quantity = Ki ratio; result = 26

Some of these lines once more:
SMILES = CCN(CC)CCCC[C@H](NC(=O)[C@H](CC(C)C)NC(=O)[C@H](C)NC(=O)[C@H](Cc1ccccc1)NC(=O)c1ccc(C(C)(C)C)cc1)C(=O)N[C@@H](CO)C(=O)OC; target = DRD1 (Homo sapiens, UniProt P21728); assay = antagonist, radioligand binding; conditions = 10 µM; how to read = reference: control binding; quantity = specific binding; result = 95.7%
SMILES = C[C@H]1CCC/C=C/[C@@H]2C[C@H](O)C[C@H]2[C@H](O)/C=C/C(=O)O1; target = Protein transport protein Sec61 subunit alpha isoform 1 (Homo sapiens, UniProt P61619); assay = reporter gene, inhibitor, dual luciferase; test system = HEK293 with SP-CD4-FLuc reporter; conditions = concentration not given; quantity = FLuc/RLuc ratio; result = 6.34 and 4.77 and 6.14 and 6.42
